Measured values gathered from unrelated publications.
± marks the error that the study gave.
lecA: PA-I galactophilic lectin (lecA, Pseudomonas aeruginosa, UniProt Q05097)
UniProt Q05097, sequence (whole entry, looked up): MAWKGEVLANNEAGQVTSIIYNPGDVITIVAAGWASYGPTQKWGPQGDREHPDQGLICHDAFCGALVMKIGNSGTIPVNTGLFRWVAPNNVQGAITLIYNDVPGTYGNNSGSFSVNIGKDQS
UniProt Q02152, sequence (whole entry, looked up): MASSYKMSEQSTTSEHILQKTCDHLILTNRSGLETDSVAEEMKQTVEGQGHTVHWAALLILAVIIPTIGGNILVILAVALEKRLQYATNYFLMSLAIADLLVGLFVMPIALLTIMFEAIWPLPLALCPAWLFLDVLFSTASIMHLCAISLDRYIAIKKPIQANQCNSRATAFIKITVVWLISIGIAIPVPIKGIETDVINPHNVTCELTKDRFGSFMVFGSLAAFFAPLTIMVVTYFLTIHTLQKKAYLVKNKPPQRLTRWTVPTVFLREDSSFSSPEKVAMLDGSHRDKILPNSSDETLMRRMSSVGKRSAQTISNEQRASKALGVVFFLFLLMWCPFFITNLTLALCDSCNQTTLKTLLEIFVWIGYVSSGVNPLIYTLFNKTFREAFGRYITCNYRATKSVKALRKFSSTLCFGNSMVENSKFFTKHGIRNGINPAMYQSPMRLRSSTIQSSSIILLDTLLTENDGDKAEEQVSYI
UniProt P12004, sequence (whole entry, looked up): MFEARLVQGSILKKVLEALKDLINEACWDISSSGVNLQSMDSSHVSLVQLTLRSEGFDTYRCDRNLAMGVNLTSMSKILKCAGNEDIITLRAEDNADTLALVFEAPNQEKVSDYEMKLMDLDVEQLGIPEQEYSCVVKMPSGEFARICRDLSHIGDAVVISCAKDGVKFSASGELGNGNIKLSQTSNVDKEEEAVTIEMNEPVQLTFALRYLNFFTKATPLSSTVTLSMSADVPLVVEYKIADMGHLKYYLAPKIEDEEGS
UniProt O35082, sequence (whole entry, looked up): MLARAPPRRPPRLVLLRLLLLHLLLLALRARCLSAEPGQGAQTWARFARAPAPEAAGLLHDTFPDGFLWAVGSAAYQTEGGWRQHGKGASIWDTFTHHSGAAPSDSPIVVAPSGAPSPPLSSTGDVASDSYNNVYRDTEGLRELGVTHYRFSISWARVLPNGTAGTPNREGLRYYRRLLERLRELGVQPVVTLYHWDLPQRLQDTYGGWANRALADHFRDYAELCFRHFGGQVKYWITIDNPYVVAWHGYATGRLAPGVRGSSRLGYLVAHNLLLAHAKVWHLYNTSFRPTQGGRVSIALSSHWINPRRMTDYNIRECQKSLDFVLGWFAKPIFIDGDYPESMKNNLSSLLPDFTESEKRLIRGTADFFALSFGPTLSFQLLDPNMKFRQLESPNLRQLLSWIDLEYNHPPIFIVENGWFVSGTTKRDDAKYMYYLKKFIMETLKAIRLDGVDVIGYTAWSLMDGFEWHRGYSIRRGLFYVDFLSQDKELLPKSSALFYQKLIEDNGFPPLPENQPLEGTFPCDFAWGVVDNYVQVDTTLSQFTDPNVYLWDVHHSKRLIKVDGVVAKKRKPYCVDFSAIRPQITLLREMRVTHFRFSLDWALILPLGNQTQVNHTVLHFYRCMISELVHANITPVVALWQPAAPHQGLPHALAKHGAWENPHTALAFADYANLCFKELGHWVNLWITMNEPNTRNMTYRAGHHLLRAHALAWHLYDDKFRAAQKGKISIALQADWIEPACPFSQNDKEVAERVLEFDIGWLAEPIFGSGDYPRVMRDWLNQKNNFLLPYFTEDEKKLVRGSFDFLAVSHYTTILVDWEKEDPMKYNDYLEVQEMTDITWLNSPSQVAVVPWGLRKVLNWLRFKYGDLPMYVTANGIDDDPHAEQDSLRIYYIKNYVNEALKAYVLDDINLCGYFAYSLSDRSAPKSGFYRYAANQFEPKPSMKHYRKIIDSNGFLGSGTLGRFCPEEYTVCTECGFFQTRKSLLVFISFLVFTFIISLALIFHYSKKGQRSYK
UniProt P63104, sequence (whole entry, looked up): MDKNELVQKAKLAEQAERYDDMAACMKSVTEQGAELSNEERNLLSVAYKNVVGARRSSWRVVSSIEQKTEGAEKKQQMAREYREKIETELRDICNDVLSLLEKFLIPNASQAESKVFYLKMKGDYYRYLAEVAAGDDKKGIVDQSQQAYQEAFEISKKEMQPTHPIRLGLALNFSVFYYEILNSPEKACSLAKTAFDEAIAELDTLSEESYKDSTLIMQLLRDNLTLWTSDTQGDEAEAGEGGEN
UniProt Q9Y294, sequence (whole entry, looked up): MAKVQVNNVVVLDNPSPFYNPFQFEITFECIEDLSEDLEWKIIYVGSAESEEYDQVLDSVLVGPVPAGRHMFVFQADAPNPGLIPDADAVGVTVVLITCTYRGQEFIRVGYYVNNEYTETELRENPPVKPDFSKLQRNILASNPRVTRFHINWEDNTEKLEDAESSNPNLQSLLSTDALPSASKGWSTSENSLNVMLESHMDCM
UniProt P11021, sequence (whole entry, looked up): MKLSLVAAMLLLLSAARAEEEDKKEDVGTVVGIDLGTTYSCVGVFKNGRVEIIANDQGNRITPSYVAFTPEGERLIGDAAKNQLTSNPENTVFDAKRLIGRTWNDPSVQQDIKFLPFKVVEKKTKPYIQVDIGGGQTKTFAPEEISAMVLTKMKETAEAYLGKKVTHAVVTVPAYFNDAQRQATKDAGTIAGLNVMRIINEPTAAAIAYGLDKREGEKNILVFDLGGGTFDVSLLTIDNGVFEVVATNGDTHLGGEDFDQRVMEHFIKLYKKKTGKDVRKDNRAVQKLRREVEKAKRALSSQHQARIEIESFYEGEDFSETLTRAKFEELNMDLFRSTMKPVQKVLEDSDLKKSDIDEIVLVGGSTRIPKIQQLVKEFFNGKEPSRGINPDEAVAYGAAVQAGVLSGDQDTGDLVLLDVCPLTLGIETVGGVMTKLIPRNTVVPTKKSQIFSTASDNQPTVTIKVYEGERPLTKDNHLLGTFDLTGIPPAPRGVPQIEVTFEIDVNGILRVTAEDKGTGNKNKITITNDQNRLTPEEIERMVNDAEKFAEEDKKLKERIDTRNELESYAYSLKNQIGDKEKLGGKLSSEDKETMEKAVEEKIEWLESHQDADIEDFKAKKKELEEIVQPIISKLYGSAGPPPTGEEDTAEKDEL
UniProt Q14145, sequence (whole entry, looked up): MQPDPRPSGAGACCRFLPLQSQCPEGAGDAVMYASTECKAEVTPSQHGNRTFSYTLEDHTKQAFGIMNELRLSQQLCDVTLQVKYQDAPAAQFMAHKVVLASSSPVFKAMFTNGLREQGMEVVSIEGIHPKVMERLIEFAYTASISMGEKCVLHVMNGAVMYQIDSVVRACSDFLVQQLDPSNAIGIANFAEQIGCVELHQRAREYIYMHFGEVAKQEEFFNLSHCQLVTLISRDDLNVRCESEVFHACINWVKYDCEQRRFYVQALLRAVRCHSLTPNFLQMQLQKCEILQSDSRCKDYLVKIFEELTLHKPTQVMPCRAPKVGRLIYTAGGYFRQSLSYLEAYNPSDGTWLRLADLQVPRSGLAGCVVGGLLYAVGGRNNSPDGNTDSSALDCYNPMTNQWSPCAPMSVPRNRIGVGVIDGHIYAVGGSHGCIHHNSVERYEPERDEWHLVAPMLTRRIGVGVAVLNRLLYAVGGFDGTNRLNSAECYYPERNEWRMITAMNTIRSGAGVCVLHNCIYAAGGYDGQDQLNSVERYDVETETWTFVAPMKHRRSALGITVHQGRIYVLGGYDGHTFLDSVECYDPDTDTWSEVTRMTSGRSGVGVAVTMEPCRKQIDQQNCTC
UniProt Q9NZC7, sequence (whole entry, looked up): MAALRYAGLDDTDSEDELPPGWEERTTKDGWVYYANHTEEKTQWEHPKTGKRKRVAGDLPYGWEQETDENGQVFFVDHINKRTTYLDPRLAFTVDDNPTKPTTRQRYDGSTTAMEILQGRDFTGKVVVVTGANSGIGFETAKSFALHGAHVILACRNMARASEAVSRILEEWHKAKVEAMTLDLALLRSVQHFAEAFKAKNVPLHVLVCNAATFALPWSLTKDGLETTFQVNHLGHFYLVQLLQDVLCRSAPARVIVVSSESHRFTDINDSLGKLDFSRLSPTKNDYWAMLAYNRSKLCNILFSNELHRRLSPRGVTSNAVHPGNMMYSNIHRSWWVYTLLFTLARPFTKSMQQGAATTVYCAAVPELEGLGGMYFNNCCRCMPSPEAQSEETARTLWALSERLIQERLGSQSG
UniProt Q9FIP9, sequence (whole entry, looked up): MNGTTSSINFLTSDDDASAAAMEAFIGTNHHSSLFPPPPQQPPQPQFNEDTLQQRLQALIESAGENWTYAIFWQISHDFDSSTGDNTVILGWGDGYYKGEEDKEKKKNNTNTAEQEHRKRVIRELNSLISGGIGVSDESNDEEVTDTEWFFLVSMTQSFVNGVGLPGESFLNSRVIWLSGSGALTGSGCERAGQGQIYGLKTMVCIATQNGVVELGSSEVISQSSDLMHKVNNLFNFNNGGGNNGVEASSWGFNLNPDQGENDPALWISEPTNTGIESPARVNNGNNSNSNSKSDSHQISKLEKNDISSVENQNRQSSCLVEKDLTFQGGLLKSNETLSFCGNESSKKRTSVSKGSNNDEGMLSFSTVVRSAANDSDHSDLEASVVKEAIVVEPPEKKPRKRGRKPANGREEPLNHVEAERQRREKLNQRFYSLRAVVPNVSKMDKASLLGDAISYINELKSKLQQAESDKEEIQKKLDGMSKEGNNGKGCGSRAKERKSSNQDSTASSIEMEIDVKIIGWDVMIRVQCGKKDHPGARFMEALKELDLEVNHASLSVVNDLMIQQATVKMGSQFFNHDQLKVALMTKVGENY

CC(C)C[C@@H]1NC(=O)[C@H](C)NC(=O)[C@H](C)NC(=O)[C@H](CC(C)C)NC(=O)[C@H](CCC(=O)O)NC(=O)[C@H](C)NC(=O)[C@H](CCC(=O)O)NC(=O)[C@H](CC(C)C)NC(=O)[C@H](C)NC(=O)[C@H](C)NC(=O)[C@H](CC(C)C)NC(=O)[C@H](CCC(=O)O)NC(=O)[C@H](C)NC(=O)[C@H](C)NC(=O)[C@@H](N)CSSC[C@@H](C(N)=O)NC(=O)[C@H](C)NC(=O)[C@H](C)NC(=O)[C@H](CCCCN)NC(=O)[C@H](CC(C)C)NC(=O)[C@H](C)NC(=O)[C@H](C)NC(=O)[C@H](CC(C)C)NC(=O)[C@H](CCCCN)NC(=O)[C@H](C)NC(=O)[C@H](CCCCN)NC(=O)[C@H](CC(C)C)NC(=O)[C@H](C)NC(=O)[C@H](C)NC(=O)[C@H](CC(C)C)NC(=O)[C@H](CCCCN)NC(=O)CNC(=O)[C@H](CCCNC(=N)N)NC(=O)[C@H](Cc2ccccc2)NC(=O)[C@H](CC(C)C)NC(=O)[C@H](CCC(=O)O)NC(=O)[C@H](C(C)C)NC(=O)CNC(=O)[C@H](Cc2ccccc2)NC(=O)[C@H](CC(N)=O)NC(=O)[C@H](C(C)C)NC(=O)CNC(=O)[C@H](CCC(=O)O)NC1=O gave a Kd of 560 ± 160 nM (Albumin (Mus musculus, UniProt P07724); binding, SPR).
With C#CC[C@H](NC(=O)CNC(=O)[C@H](CO)NC(=O)[C@H](CCCCN)NC(=O)[C@H](C)N(C)C(=O)[C@H](C)NC(=O)[C@@H](NC(=O)[C@@H](NC(=O)[C@H](CCCNC(=N)N)NC(=O)[C@H](Cc1c[nH]cn1)NC(=O)[C@@H]1CCCN1C(=O)[C@H](Cc1ccccc1)NC(=O)[C@@H](N)CCSC)C(C)C)[C@@H](C)O)C(=O)O the Kd was 312 ± 143 nM (Microtubule-associated protein 1 light chain 3 beta (Homo sapiens, UniProt Q9GZQ8); fluorescence polarization).
For CC(C)C[C@H](NC(=O)[C@H](CCCNC(=N)N)NC(=O)[C@H](CCC(=O)O)NC(=O)[C@H](CCCCN)NC(=O)[C@H](CCCNC(=N)N)NC(=O)[C@H](CCCCN)NC(=O)[C@]1(C)CCCC=CCCC[C@](C)(NC(=O)[C@H](CC(C)C)NC(=O)[C@H](CO)NC(=O)[C@]2(C)CCCC=CCCC[C@](C)(NC(=O)[C@@H]3CCCN3C(=O)[C@@H](NC(=O)[C@H](CO)NC(=O)c3ccc4c(c3)C(=O)OC43c4ccc(N(C)C)cc4Oc4cc(N(C)C)ccc43)C(C)C)C(=O)N[C@@H](C)C(=O)N[C@@H](CCCNC(=N)N)C(=O)N[C@@H](CCCCN)C(=O)N2)C(=O)N[C@@H](CCCNC(=N)N)C(=O)N[C@@H](Cc2ccccc2)C(=O)N[C@@H](CC(C)C)C(=O)N1)C(=O)O, the Kd was 100 ± 20 nM (Transcription factor MYC3 (MYC3, Arabidopsis thaliana, UniProt Q9FIP9); binding, fluorescence anisotropy; pH 8.0, apparent Kd, together with: 100 nM TMR-labelled JAZ peptide).
C[C@H](N)C(=O)N[C@@H](CCCNC(=N)N)C(=O)N[C@H](C(=O)N[C@@H](CCCC[N+](C)(C)C)C(=O)N[C@@H](CCC(N)=O)C(=O)N[C@H](C(=O)N[C@@H](C)C(=O)N[C@@H](CCCNC(=N)N)C(=O)N[C@@H](CCCCN)C(=O)N[C@@H](CO)C(=O)N[C@H](C(=O)NCC(=O)O)[C@@H](C)O)[C@@H](C)O)[C@@H](C)O has a Kd of 17000 nM (Protein partner of snf, PHD domain (Drosophila melanogaster, UniProt Q9VG78); intrinsic tryptophan fluorescence; pH 6.0, 25 °C, PHD finger).
The Kd of CC(=O)NC1C(OC2C(O)C(O)OC(CO)C2O)OC(CO)C(O)C1OC1OC(CO)C(O)C(OC2OC(CO)C(O)C(O)C2O)C1OC1OC(C)C(O)C(O)C1O (stereo not drawn) is reported as 8400 nM (sly (Streptococcus suis, UniProt Q55996); binding).
CC[C@H](C)[C@H](NC(=O)[C@H](CCCNC(=N)N)NC(=O)NC[C@H](CCC(N)=O)NC(=O)NC[C@H](CC(C)C)NC(=O)NC[C@H](CCCNC(=N)N)NC(=O)NC[C@H](Cc1ccc2ccccc2c1)NC(=O)[C@H](CCCCN)NC(=O)[C@H](CCC(=O)O)NC(=O)[C@H](CCC(=O)O)NC(=O)[C@@H](NC(=O)[C@H](CO)NC(=O)[C@H](C)NC(C)=O)[C@@H](C)O)C(=O)N[C@@H](C)C(N)=O has a Kd of 13100 nM (Histone chaperone ASF1A (Homo sapiens, UniProt Q9Y294); binding, ITC; pH 7.5).
With N=C(N)NCCC[C@@H]1NC(=O)[C@@H](CCCCN)NC(=O)CCNC(=O)[C@@H](Cc2ccc3ccccc3c2)NC(=O)[C@H](CC(=O)O)NC(=O)[C@H](CCCCN)NC1=O the Kd was 211000 nM (Endoplasmic reticulum chaperone BiP (HSPA5, Homo sapiens, UniProt P11021); binding, SPR; pH 7.4).
CSCC[C@H](NC(=O)[C@@H](N)Cc1ccc(O)cc1)C(=O)N[C@@H](CO)C(=O)N[C@@H](Cc1ccccc1)C(=O)N[C@H](C(=O)N[C@@H](CCCNC(=N)N)C(=O)N[C@@H](CCCNC(=N)N)C(=O)N[C@H](C(=O)N[C@@H](CCC(=O)O)C(=O)N[C@@H](CO)C(=O)N[C@@H](CC(=O)O)C(=O)N[C@@H](CCCCN)C(=O)N[C@@H](CC(C)C)C(=O)N[C@@H](Cc1c[nH]cn1)C(=O)N[C@@H](CO)C(=O)O)[C@@H](C)O)[C@@H](C)O gave a Kd of 290 nM (Prothrombin (F2, Homo sapiens, UniProt P00734); microscale thermophoresis; 1 h, labelled thrombin).
The Kd of CC[C@H](C)[C@H](NC(=O)[C@H](Cc1c[nH]cn1)NC(=O)[C@H](CCCCNC(=O)[C@@H](NC(=O)[C@H](CCCCN)NC(=O)CSC[C@H](NC(=O)[C@H](Cc1ccccc1)NC(=O)[C@H](CCCCNC(=O)[C@H](CC(C)C)NC(=O)[C@@H]1CCCN1C(=O)[C@H](CCCCN)NC(=O)c1ccc(O[C@@H]2O[C@H](CO)[C@H](O)[C@H](O)[C@H]2O)cc1)NC(=O)[C@H](CC(C)C)NC(=O)[C@@H]1CCCN1C(=O)[C@H](CCCCN)NC(=O)c1ccc(O[C@@H]2O[C@H](CO)[C@H](O)[C@H](O)[C@H]2O)cc1)C(N)=O)[C@@H](C)CC)NC(=O)[C@@H](NC(=O)[C@H](CCCCN)NC(=O)CSC[C@H](NC(=O)[C@H](Cc1ccccc1)NC(=O)[C@H](CCCCNC(=O)[C@H](CC(C)C)NC(=O)[C@@H]1CCCN1C(=O)[C@H](CCCCN)NC(=O)c1ccc(O[C@@H]2O[C@H](CO)[C@H](O)[C@H](O)[C@H]2O)cc1)NC(=O)[C@H](CC(C)C)NC(=O)[C@@H]1CCCN1C(=O)[C@H](CCCCN)NC(=O)c1ccc(O[C@@H]2O[C@H](CO)[C@H](O)[C@H](O)[C@H]2O)cc1)C(N)=O)[C@@H](C)CC)C(N)=O is reported as 23 nM (lecA; binding, ITC; pH 7.5).
The Kd of C=CCOC(=O)NCCC[C@@H](NC(=O)[C@H](CCCNC(=N)N)NC(=O)[C@H](C)NC(=O)[C@H](CCCNC(=N)N)NC(=O)CNC(=O)[C@H](CCCNC(=N)N)NC(=O)[C@@H](NC(=O)[C@@H](NC(=O)CNC(=O)[C@H](CC(C)C)NC(=O)[C@@H]1CCCN1C(=O)[C@H](CC(=O)O)NC(=O)[C@H](CO)NC(=O)[C@H](C)NC(=O)CC1c2ccccc2-c2ccccc21)C(C)C)C(C)C)C(N)=O is reported as 10 ± 6 nM (Klotho (Kl, Mus musculus, UniProt O35082); BLI competition binding; 30 min, 30 °C, together with: 100 nM mouse Klotho, immobilized Pep-10-Biotin).
CSCC[C@H](NC(=O)[C@H](C)NC(=O)CNC(=O)CCCC[C@@H]1SC[C@@H]2NC(=O)N[C@@H]21)C(=O)N[C@@H](CCCNC(=N)N)C(=O)NCC(=O)N[C@@H](C)C(=O)N[C@@H](CC(C)C)C(=O)N[C@@H](CO)C(=O)N[C@@H](CCC(=O)O)C(=O)NCC(=O)N[C@@H](CCC(N)=O)C(=O)N[C@@H](Cc1ccccc1)C(=O)N[C@@H](Cc1ccc(O)cc1)C(=O)N[C@@H](COP(=O)(O)O)C(=O)N1CCC[C@H]1C(=O)N1CCC[C@H]1C(=O)N[C@@H](CCC(=O)O)C(=O)N[C@@H](COP(=O)(O)O)C(=O)N[C@@H](Cc1ccccc1)C(=O)N[C@@H](C)C(=O)NCC(=O)O gave a Kd of 350 ± 160 nM (Motile sperm domain-containing protein 2, MSP domain (MOSPD2, Homo sapiens, UniProt Q8NHP6); binding to FFAT peptide, SPR; pH 7.5, 25 °C).
The Kd of CC(=O)N[C@H]1CCCCn2cc3ccccc3c2SC[C@@H](C(N)=O)NC(=O)CNC(=O)[C@H](CCCNC(=N)N)NC(=O)CNC(=O)[C@H]([C@@H](C)O)NC(=O)[C@H](C)NC(=O)[C@H]([C@@H](C)O)NC(=O)[C@H](CCC(N)=O)NC1=O is reported as 4300 nM (Kelch-like ECH-associated protein 1 (KEAP1, Homo sapiens, UniProt Q14145); binding, BLI).
With CC(=O)NCCCC[C@H](NC(=O)CNC(=O)[C@@H]1CCCN1C(=O)[C@@H](NC(=O)[C@H](COP(=O)(O)O)NC(=O)[C@H](CCCCN)NC(=O)[C@H](CCCNC(=N)N)NC(=O)[C@H](C)NC(=O)[C@@H](NC(=O)[C@H](CCC(N)=O)NC(=O)[C@H](CCCCN)NC(=O)[C@@H](NC(=O)[C@H](CCCNC(=N)N)NC(=O)[C@H](C)N)[C@@H](C)O)[C@@H](C)O)[C@@H](C)O)C(=O)N[C@@H](C)C(=O)N1CCC[C@H]1C(=O)N[C@@H](CCCNC(=N)N)C(=O)N[C@@H](CCCCN)C(=O)N[C@@H](CCC(N)=O)C(=O)N[C@@H](CC(C)C)C(=O)O the Kd was 40000 nM (14-3-3 protein zeta/delta (YWHAZ, Homo sapiens, UniProt P63104); binding, fluorescence polarization; together with: modified histone H3 peptides).
CC(C)C[C@H](NC(=O)[C@@H]1CCCN1C(=O)[C@H](CCCCN)NC(=O)CCS[C@@H]1O[C@H](CO)[C@H](O)[C@H](O)[C@H]1O)C(N)=O has a Kd of 37000 nM (lecA; binding, ITC).
The Kd of CC(C)C[C@H](NC(=O)[C@@H](NC(=O)[C@@H](NC(=O)CNC(=O)CNC(=O)CNC(=O)CNC(=O)CNC(=O)[C@H](CC(N)=O)NC(=O)[C@H](CCCNC(=N)N)NC(=O)[C@H](Cc1c[nH]cn1)NC(=O)[C@H](CCCNC(=N)N)NC(=O)[C@H](Cc1ccc(O)cc1)NC(=O)[C@@H]1CCCN1C(=O)[C@@H]1CCCN1C(=O)[C@@H]1CCCN1C(=O)[C@@H]1CCCN1C(=O)[C@H](CC(C)C)NC(=O)[C@@H](NC(=O)[C@@H](NC(=O)CN)[C@@H](C)O)C(C)C)[C@@H](C)O)C(C)C)C(=O)N1CCC[C@H]1C(=O)N[C@@H](C)C(=O)N[C@@H](C)C(=O)N1CCC[C@H]1C(=O)N[C@@H](Cc1ccc(O)cc1)C(=O)N[C@@H](CCCNC(=N)N)C(=O)N[C@@H](Cc1c[nH]cn1)C(=O)N[C@@H](CCCNC(=N)N)C(=O)N[C@@H](CC(N)=O)C(=O)O is reported as 27100 nM (WW domain-containing oxidoreductase, WW1-WW2 tandem domains (WWOX, Homo sapiens, UniProt Q9NZC7); ITC; 20 °C).
CC[C@H](C)[C@H](NC(=O)[C@@H](NC(=O)[C@H](C)NC(=O)[C@@H](NC(=O)[C@H](Cc1c[nH]c2ccccc12)NC(=O)[C@H](CCC(=O)O)NC(=O)[C@H](CO)NC(=S)Nc1ccc2c(c1)C(=O)OC21c2ccc(O)cc2Oc2cc(O)ccc21)C(C)C)C(C)C)C(=O)N1CCC[C@H]1C(=O)N[C@@H](Cc1ccccc1)C(=O)N[C@@H](CC(C)C)C(=O)N[C@H](C(=O)N[C@@H](CC(N)=O)C(=O)N[C@@H](CC(C)C)C(=O)O)[C@@H](C)O has a Kd of > 100000 nM (Rgg transcriptional regulator (Streptococcus pneumoniae, UniProt A0A0E7KI02); binder, fluorescence polarization; 20 min, pH 7.4, 20 °C, fluorescein-labelled peptide).
CSCC[C@@H]1NC(=O)[C@H](CO)NC(=O)[C@@H](NC(=O)[C@H](CCC(N)=O)NC(=O)[C@H](CCCNC(=N)N)NC(C)=O)CSCc2c(C)c(=O)n3c(=O)c(C)c(n23)CSC[C@@H](C(=O)N[C@@H](Cc2ccccc2)C(=O)N[C@@H](Cc2ccc(O)cc2)C(=O)N[C@@H](Cc2c[nH]cn2)C(=O)N[C@@H](CO)C(=O)N[C@@H](CCCCN)C(N)=O)NC(=O)[C@H]([C@@H](C)O)NC1=O has a Kd of 570 nM (Proliferating cell nuclear antigen (PCNA, Homo sapiens, UniProt P12004); binding, SPR).
Cc1cc(-c2ccc3ccccc3c2)nnc1NCCN1CCN(C)CC1 gave a Kd of 89 nM (5-hydroxytryptamine receptor 2B (Mus musculus, UniProt Q02152); Gq activation, antagonist, Schild analysis; mouse; together with: serotonin).
